Results collected from several papers.
Compare with care: the assays were run in different laboratories.

Structure (SMILES) | organism | test | system | conditions | MIC
CC1(C)SC2C(NC(=O)C(NC(=O)C3=C(O)C4CCCN4C3=O)c3ccccc3)C(=O)N2C1C(=O)O (stereo not drawn) | Escherichia coli | broth microdilution | isolate IU, CTX-M-14, TEM-1 | no clavulanic acid | > 200 µg/mL
C[C@H](NC(=O)CO/N=c1\cc2n(-c3ccc(Cl)cc3)c3ccccc3nc-2cc1Nc1ccc(Cl)cc1)C(=O)O | Neisseria gonorrhoeae | bacterial growth | 700825, streptomycin-resistant | 24 h | 7.5 µM
CC1(C)SC2C(NC(=O)C(NC(=O)C3=C(O)C(Cc4ccccc4)NC3=O)c3ccccc3)C(=O)N2C1C(=O)O (stereo not drawn) | Escherichia coli | broth microdilution | isolate IU, CTX-M-14, TEM-1 | no clavulanic acid | > 200 µg/mL
CC(=O)N1CCN(c2ccc(OCC3COC(Cn4ccnc4)(c4ccc(Cl)cc4Cl)O3)cc2)CC1 (stereo not drawn) | Candida albicans | broth microdilution | 56467, RPMI 1640-MOPS | 48 h, 30 °C | > 64 µM
N=C(N)NCCC[C@H](NC(=O)CCCCCNC(=O)[C@H](CCCNC(=N)N)NC(=O)[C@H](CCCNC(=N)N)NC(=O)CCCCCNC(=O)[C@H](CCCNC(=N)N)NC(=O)[C@H](CCCNC(=N)N)NC(=O)CCCCCNC(=O)[C@H](CCCNC(=N)N)NC(=O)[C@H](CCCNC(=N)N)NC(=O)CCCCCNC(=O)[C@@H](N)CCCNC(=N)N)C(=O)NCCCCCC(=O)NCCC(=O)O | Escherichia coli |  | ATCC 25922 | 1 h, 37 °C, serum, fetal bovine, after 12.5% | 96 µM
O/N=c1\cc2n(-c3ccc(Cl)cc3)c3ccccc3nc-2cc1Nc1ccc(Cl)cc1 | Neisseria gonorrhoeae | bacterial growth | 1130991, multidrug-resistant | 24 h | 0.23 µM
CSCC[C@H](NC(=O)[C@H](CCCCN)NC(=O)[C@H](CCSC)NC(=O)[C@H](CCCCN)NC(=O)[C@H](CC(C)C)NC(=O)[C@H](CC(C)C)NC(=O)[C@H](CCCNC(=N)N)NC(=O)[C@H](CC(=O)O)NC(=O)[C@H](CCCCN)NC(=O)[C@H](Cc1c[nH]c2ccccc12)NC(=O)[C@H](Cc1ccc(O)cc1)NC(=O)[C@H](Cc1ccccc1)NC(=O)[C@H](CCCNC(=N)N)NC(=O)[C@@H]1CCCN1C(=O)[C@@H](NC(=O)[C@H](CCCNC(=N)N)NC(=O)[C@@H](N)CO)C(C)C)C(=O)N[C@@H](C)C(=O)O | Micrococcus luteus |  | NCTC 2665 |  | 100 µg/mL
N=C(N)c1ccc(OCc2cccc(COc3ccc(C(=N)N)cc3)c2)cc1 | Escherichia coli |  | mcr-1 | 20 h, in combination, checkerboard, together with: rifampicin | 25 µg/mL
CC1(C)SC2C(NC(=O)C(NC(=O)C3=C(O)C(Cc4ccc(F)cc4)NC3=O)c3ccccc3)C(=O)N2C1C(=O)O (stereo not drawn) | Escherichia coli | broth microdilution | Keio mutant JW2142-1 |  | 25 µg/mL
CC[C@H](C)[C@H](NC(=O)[C@H](CCCNC(=N)N)NC(=O)[C@H](Cc1c[nH]c2ccccc12)NC(=O)[C@H](CCCNC(=N)N)NC(=O)[C@H](Cc1c[nH]c2ccccc12)NC(=O)[C@H](Cc1c[nH]c2ccccc12)NC(=O)[C@H](Cc1c[nH]c2ccccc12)NC(=O)[C@H](CCCNC(=N)N)NC(=O)[C@H](Cc1c[nH]c2ccccc12)NC(=O)[C@H](CCCNC(=N)N)NC(=O)CN)C(N)=O | Candida albicans | broth microdilution | CGMCC 2.209, RPMI 1640-MOPS | 48 h, 30 °C, together with: CaCl2 2 mM | 16 µM
C=CCO/N=c1\cc2n(-c3ccc(Cl)cc3)c3ccccc3nc-2cc1Nc1ccc(Cl)cc1 | Neisseria gonorrhoeae | bacterial growth | 1130991, multidrug-resistant | 24 h | > 30 µM
CC1(C)SC2C(NC(=O)C(NC(=O)C3=C(O)C4(CC4)NC3=O)c3ccccc3)C(=O)N2C1C(=O)O (stereo not drawn) | Escherichia coli | broth microdilution | isolate IU 356 A, KPC-3, VIM-1, TEM | no clavulanic acid | > 200 µg/mL
N=C(N)NCCC[C@H](NC(=O)[C@H](Cc1c[nH]c2ccccc12)NC(=O)[C@H](CCCNC(=N)N)NC(=O)[C@H](Cc1c[nH]c2ccccc12)NC(=O)[C@H](Cc1c[nH]c2ccccc12)NC(=O)[C@H](Cc1c[nH]c2ccccc12)NC(=O)[C@H](CCCNC(=N)N)NC(=O)[C@H](Cc1c[nH]c2ccccc12)NC(=O)[C@@H](N)CCCNC(=N)N)C(=O)N[C@@H](Cc1c[nH]c2ccccc12)C(N)=O | Candida albicans | broth microdilution | CGMCC 2.209, RPMI 1640-MOPS | 48 h, 30 °C, together with: NH4Cl 6 µM | 8 µM
CN[C@H](CC(C)C)C(=O)N[C@H]1C(=O)N[C@@H](CC(N)=O)C(=O)N[C@H]2C(=O)N[C@H]3C(=O)N[C@H](C(=O)N[C@H](C(=O)O)c4cc(O)cc(O)c4-c4cc3ccc4O)[C@H](O)c3ccc(c(Cl)c3)Oc3cc2cc(c3O[C@@H]2O[C@H](CO)[C@@H](O)[C@H](O)[C@H]2O[C@H]2C[C@](C)(N)[C@H](O)[C@H](C)O2)Oc2ccc(cc2Cl)[C@H]1O | Streptococcus pyogenes |  | erythromycin-resistant, 19 strains |  | 0.27 µg/mL
CC[C@H](C)CCCCC(=O)N[C@@H](CCN)C(=O)N[C@H](C(=O)N[C@@H](CCN)C(=O)N[C@H]1CCNC(=O)[C@H]([C@@H](C)O)NC(=O)[C@H](CCN)NC(=O)[C@H](CCN)NC(=O)[C@H](CC(C)C)NC(=O)[C@@H](Cc2ccccc2)NC(=O)[C@H](CCN)NC1=O)[C@@H](C)O | Micrococcus luteus | broth microdilution | ATCC 7468 | 24 h | < 1 µM
CC[C@H](C)[C@H](NC(=O)CN)C(=O)NCC(=O)N[C@@H](C)C(=O)N[C@H](C(=O)N[C@@H](CC(C)C)C(=O)N[C@@H](CCCCN)C(=O)N[C@H](C(=O)N[C@@H](CC(C)C)C(=O)N[C@H](C(=O)N[C@H](C(=O)NCC(=O)N[C@@H](CC(C)C)C(=O)N1CCC[C@H]1C(=O)N[C@@H](C)C(=O)N[C@@H](CC(C)C)C(=O)N[C@H](C(=O)N[C@@H](CO)C(=O)N[C@@H](Cc1c[nH]c2ccccc12)C(=O)N[C@H](C(=O)N[C@@H](CCCCN)C(=O)N[C@@H](CCCNC(=N)N)C(=O)N[C@@H](CCCCN)C(=O)N[C@@H](CCCNC(=N)N)C(=O)N[C@@H](CCC(N)=O)C(=O)N[C@@H](CCC(N)=O)C(N)=O)[C@@H](C)CC)[C@@H](C)CC)[C@@H](C)O)[C@@H](C)O)C(C)C)C(C)C | Candida tropicalis | broth microdilution | CGMCC 2.197, RPMI-1640 | 48 h, 30 °C | 2 µM
CC(C)C[C@@H](NC(=O)[C@H](C)NC(=O)CNC(=O)[C@@H](NC=O)C(C)C)C(=O)N[C@@H](C)C(=O)N[C@@H](C(=O)N[C@H](C(=O)N[C@@H](C(=O)N[C@@H](Cc1c[nH]c2ccccc12)C(=O)N[C@H](CC(C)C)C(=O)N[C@@H](Cc1cccc2[nH]ccc12)C(=O)N[C@H](CC(C)C)C(=O)N[C@@H](Cc1c[nH]c2ccccc12)C(=O)N[C@H](CC(C)C)C(=O)N[C@@H](Cc1c[nH]c2ccccc12)C(=O)NCCO)C(C)C)C(C)C)C(C)C | Streptococcus agalactiae | broth microdilution | JCM 5671 |  | 0.53 µM
CC(C)C[C@H](NC(=O)[C@H](CCCCN)NC(=O)[C@H](CO)NC(=O)[C@H](C)NC(=O)[C@H](C)NC(=O)CNC(=O)[C@H](CC(C)C)NC(=O)[C@H](CCCCN)NC(=O)[C@H](CC(C)C)NC(=O)[C@H](CC(C)C)NC(=O)[C@H](CC(C)C)NC(=O)CNC(=O)[C@H](CO)NC(=O)[C@H](Cc1c[nH]c2ccccc12)NC(=O)[C@@H](N)CCCCN)C(N)=O | Candida tropicalis | broth microdilution | ATCC 13803 | 44 h, 37 °C | 4 to 8 µM
CC1(C)SC2C(NC(=O)C(NC(=O)C3=C(O)C(Cc4ccsc4)NC3=O)c3ccccc3)C(=O)N2C1C(=O)O (stereo not drawn) | Escherichia coli | broth microdilution | isolate IU 356 A, KPC-3, VIM-1, TEM | together with: clavulanic acid 6 µg/mL | > 200 µg/mL
CC(C)C[C@H](NC(=O)[C@H](CCCNC(=N)N)NC(=O)[C@H](Cc1c[nH]c2ccccc12)NC(=O)[C@H](CCCNC(=N)N)NC(=O)[C@H](Cc1c[nH]c2ccccc12)NC(=O)[C@H](Cc1c[nH]c2ccccc12)NC(=O)[C@H](Cc1c[nH]c2ccccc12)NC(=O)[C@H](CCCNC(=N)N)NC(=O)[C@H](Cc1c[nH]c2ccccc12)NC(=O)[C@@H](N)CCCNC(=N)N)C(N)=O | Candida tropicalis | broth microdilution | CGMCC 2.192, RPMI 1640-MOPS | 48 h, 30 °C | 4 µM
CC[C@H](C)C[C@H](C)CCCCCCCCC(=O)N[C@H]1C[C@@H](O)[C@@H](NCCN)NC(=O)[C@@H]2[C@@H](O)CCN2C(=O)[C@H]([C@H](O)CCN)NC(=O)[C@H]([C@H](O)[C@@H](O)c2ccc(O)cc2)NC(=O)[C@@H]2C[C@@H](O)CN2C(=O)[C@H]([C@@H](C)O)NC1=O | Candida tropicalis | EUCAST broth microdilution | clinical isolate, RPMI 1640 with MOPS | pH 7.0, 37 °C, 2% glucose | 0.25 µg/mL
CC(C)[C@H](NC(=O)[C@H](CCCNC(=N)N)NC(=O)[C@H](Cc1c[nH]c2ccccc12)NC(=O)[C@H](CCCNC(=N)N)NC(=O)[C@H](Cc1c[nH]c2ccccc12)NC(=O)[C@H](Cc1c[nH]c2ccccc12)NC(=O)[C@H](Cc1c[nH]c2ccccc12)NC(=O)[C@H](CCCNC(=N)N)NC(=O)[C@H](Cc1c[nH]c2ccccc12)NC(=O)[C@H](CCCNC(=N)N)NC(=O)CN)C(N)=O | Candida albicans | broth microdilution | CGMCC 2.209, RPMI 1640-MOPS | 48 h, 30 °C, together with: FeCl3 4 µM | 32 µM
CC[C@H](C)CCCCC(=O)N[C@@H](CCN)C(=O)N[C@H](C(=O)N[C@@H](CCN)C(=O)N[C@H]1CCNC(=O)[C@H]([C@@H](C)O)NC(=O)[C@H](CCN)NC(=O)[C@H](CCN)NC(=O)[C@H](CC(C)C)NC(=O)[C@@H](Cc2ccccc2)NC(=O)[C@H](CCN)NC1=O)[C@@H](C)O | Micrococcus luteus | broth microdilution | ATCC 49732 | 24 h, 37 °C | 2 µg/mL
N=C(N)NCCC[C@H](NC(=O)[C@H](Cc1c[nH]c2ccccc12)NC(=O)[C@H](CCCNC(=N)N)NC(=O)[C@H](Cc1c[nH]c2ccccc12)NC(=O)[C@H](Cc1c[nH]c2ccccc12)NC(=O)[C@H](Cc1c[nH]c2ccccc12)NC(=O)[C@H](CCCNC(=N)N)NC(=O)[C@H](Cc1c[nH]c2ccccc12)NC(=O)[C@H](CCCNC(=N)N)NC(=O)CN)C(N)=O | Candida albicans | broth microdilution | CGMCC 2.209, RPMI 1640-MOPS | 48 h, 30 °C, together with: KCl 4.5 mM | 4 µM
O=C(CO/N=c1\cc2n(-c3ccc(Cl)cc3)c3ccccc3nc-2cc1Nc1ccc(Cl)cc1)NCc1ccc(C(F)(F)F)cc1 | Neisseria gonorrhoeae | bacterial growth | 700825, streptomycin-resistant | 24 h | > 30 µM
C[C@H](NC(=O)[C@H](CCCNC(=N)N)NC(=O)[C@H](Cc1c[nH]c2ccccc12)NC(=O)[C@H](CCCNC(=N)N)NC(=O)[C@H](Cc1c[nH]c2ccccc12)NC(=O)[C@H](Cc1c[nH]c2ccccc12)NC(=O)[C@H](Cc1c[nH]c2ccccc12)NC(=O)[C@H](CCCNC(=N)N)NC(=O)[C@H](Cc1c[nH]c2ccccc12)NC(=O)[C@@H](N)CCCNC(=N)N)C(N)=O | Candida tropicalis | broth microdilution | CGMCC 2.192, RPMI 1640-MOPS | 48 h, 30 °C | 2 µM
CC1(C)S[C@@H]2[C@H](NC(=O)[C@H](N)c3ccccc3)C(=O)N2[C@H]1C(=O)O | Escherichia coli | broth microdilution | ATCC 35218, low-level TEM-1 | together with: clavulanic acid 6 µg/mL | 50 µg/mL
